Measurements of several laboratories.
Lines come from different studies, so protocols differ. Values joined by “and” are separate records of one study, mostly repeats; a detail may differ.

Compound | assay | system | conditions | measurement | value
Cc1nnc(-c2ccc(CC(=O)NCCCC[C@H](NC(=O)c3ccc(OCc4ccc(B(O)O)cc4)c(-c4nc5ccccc5c(=O)[nH]4)c3)C(=O)NCC(=O)NCC(=O)NCC(=O)N[C@@H](Cc3ccccc3)C(=O)N[C@@H](Cc3ccccc3)C(=O)O)cc2)nn1 | UPLC-MS/MS | human serum | 100 µM, 3 h, 37 °C | remaining compound | 74.3% and 82%
C[C@H](NC(=O)CNC(=O)[C@@H]1CCCN1C(=O)[C@H](CO)NC(=O)CNC(=O)[C@H](CO)NC(=O)[C@H](C)NC(=O)[C@H](CC(N)=O)NC(=O)[C@H](C)NC(=O)[C@H](CO)NC(=O)[C@H](C)NC(=O)[C@H](CO)NC(=O)[C@@H]1CCCN1C(=O)[C@H](Cc1ccccc1)NC(=O)[C@H](C)NC(=O)[C@H](CO)NC(=O)[C@@H]1CCCN1C(=O)[C@H](Cc1ccccc1)NC(=O)[C@@H](NC(=O)[C@H](CC(=O)O)NC(=O)[C@@H](N)CO)[C@@H](C)O)C(=O)N[C@@H](CCCNC(=N)N)C(=O)N[C@@H](CO)C(=O)O |  | 50% mouse plasma | 80 min | remaining peptide | 1.03%
C#Cc1c(F)ccc2cc(O)cc(-c3ncc4c(N5CC6CCC(C5)N6C(=O)OC(C)OC(=O)C5CCCC5)nc(OC[C@@]56CCCN5C[C@H](F)C6)nc4c3F)c12 (stereo partly drawn) |  | simulated gastric fluid | 1 µM, 30 min, 37 °C | remaining prodrug | 96.1%
CC(C)[C@@H]1NC(=O)CNC(=O)[C@H](CC(N)=O)NC(=O)[C@H](CCCNC(=N)N)NC(=O)[C@H](Cc2ccc(O)cc2)NC(=O)[C@H](C(C)C)NC(=O)[C@@H](NC(=O)[C@@H](NC(=O)[C@H](CC(N)=O)NC(=O)[C@H](Cc2c[nH]c3ccccc23)NC(=O)[C@H](C)NC(=O)[C@H](Cc2ccccc2)NC(=O)CNC(=O)[C@H](CCCCN)NC(=O)[C@H](Cc2ccccc2)NC(=O)[C@H](Cc2ccccc2)NC(=O)[C@H](CCCCN)NC(=O)OCC2c3ccccc3-c3ccccc32)C(C)C)CSSC[C@@H](C(=O)N[C@@H](Cc2c[nH]cn2)C(=O)N[C@@H](CCCNC(=N)N)C(=O)N[C@@H](CCCNC(=N)N)C(=O)N[C@@H](C)C(=O)N[C@@H](CC(N)=O)C(N)=O)NC(=O)[C@H](C(C)C)NC(=O)[C@H](CCCNC(=N)N)NC1=O | HPLC | mouse mammary gland homogenate | 2560 µM, 2.00 h, 37 °C, 50 mg/mL tissue | remaining peptide | 81.8% and 86.6% and 87.9%
C=CCN1CCC23c4c5ccc(OC(=O)c6ccc(NCc7cn(CCCCCCCCCCCC)nn7)cc6)c4OC2C(=O)CCC3(O)C1C5 (stereo not drawn) |  | rat plasma | 5 µM, 2 h, 37 °C | remaining compound | 0%
CC[C@H](C)[C@H](NC(=O)[C@@H](NC(=O)[C@H](CCCCN)NC(=O)[C@@H](NC(=O)[C@@H]1CCCN1[C@@H]1CN(C(=O)[C@@H](NC(=O)[C@@H](NC(=O)[C@@H](NC(=O)[C@@H](NC(=O)[C@@H](NC(=O)[C@@H](N)CCCCN)C(C)C)C(C)C)C(C)C)[C@@H](C)CC)[C@@H](C)O)CC[C@H]1NS(=O)(=O)c1ccc(C)cc1)[C@@H](C)O)C(C)C)C(=O)N[C@@H](CC(C)C)C(=O)N[C@@H](Cc1c[nH]cn1)C(N)=O | LC-MS | pronase digest | 200 µM, 10 min, pH 7.5, 37 °C, together with: pronase 2.5 µg/mL | remaining intact peptide | 100%
C=CCN1CCC23c4c5ccc(OC(=O)c6ccc(N)cc6)c4OC2C(=O)CCC3(O)C1C5 (stereo not drawn) |  | rat plasma | 1 h, together with: loperamide 100 µM | remaining compound | 56.7% and 58.2% and 54.7%
C#Cc1c(F)ccc2cc(O)cc(-c3ncc4c(N5CC6CCC(C5)N6C(=O)OC(C)OC(=O)C(C)CC)nc(OC[C@@]56CCCN5C[C@H](F)C6)nc4c3F)c12 (stereo partly drawn) |  | simulated gastric fluid | 1 µM, 30 min, 37 °C | remaining prodrug | 96.9%
Cc1cc(-c2ccc3ccccc3c2)nnc1NCCN1CCN(C)CC1 |  | human liver microsomes | 20 min | remaining compound | 96.6%

A few entries again:
Compound | assay | system | conditions | measurement | value
C=CCN1CCC23c4c5ccc(OC(=O)c6ccc(N)cc6)c4OC2C(=O)CCC3(O)C1C5 (stereo not drawn) |  | rat plasma | 1 h, together with: loperamide 100 µM | remaining compound | 56.7% and 58.2% and 54.7%
